Experimental data collected from several papers.
Every numbered part comes from another study and shows a few of its results, in no order.
UniProt P42336, sequence (whole entry, unmodified, looked up): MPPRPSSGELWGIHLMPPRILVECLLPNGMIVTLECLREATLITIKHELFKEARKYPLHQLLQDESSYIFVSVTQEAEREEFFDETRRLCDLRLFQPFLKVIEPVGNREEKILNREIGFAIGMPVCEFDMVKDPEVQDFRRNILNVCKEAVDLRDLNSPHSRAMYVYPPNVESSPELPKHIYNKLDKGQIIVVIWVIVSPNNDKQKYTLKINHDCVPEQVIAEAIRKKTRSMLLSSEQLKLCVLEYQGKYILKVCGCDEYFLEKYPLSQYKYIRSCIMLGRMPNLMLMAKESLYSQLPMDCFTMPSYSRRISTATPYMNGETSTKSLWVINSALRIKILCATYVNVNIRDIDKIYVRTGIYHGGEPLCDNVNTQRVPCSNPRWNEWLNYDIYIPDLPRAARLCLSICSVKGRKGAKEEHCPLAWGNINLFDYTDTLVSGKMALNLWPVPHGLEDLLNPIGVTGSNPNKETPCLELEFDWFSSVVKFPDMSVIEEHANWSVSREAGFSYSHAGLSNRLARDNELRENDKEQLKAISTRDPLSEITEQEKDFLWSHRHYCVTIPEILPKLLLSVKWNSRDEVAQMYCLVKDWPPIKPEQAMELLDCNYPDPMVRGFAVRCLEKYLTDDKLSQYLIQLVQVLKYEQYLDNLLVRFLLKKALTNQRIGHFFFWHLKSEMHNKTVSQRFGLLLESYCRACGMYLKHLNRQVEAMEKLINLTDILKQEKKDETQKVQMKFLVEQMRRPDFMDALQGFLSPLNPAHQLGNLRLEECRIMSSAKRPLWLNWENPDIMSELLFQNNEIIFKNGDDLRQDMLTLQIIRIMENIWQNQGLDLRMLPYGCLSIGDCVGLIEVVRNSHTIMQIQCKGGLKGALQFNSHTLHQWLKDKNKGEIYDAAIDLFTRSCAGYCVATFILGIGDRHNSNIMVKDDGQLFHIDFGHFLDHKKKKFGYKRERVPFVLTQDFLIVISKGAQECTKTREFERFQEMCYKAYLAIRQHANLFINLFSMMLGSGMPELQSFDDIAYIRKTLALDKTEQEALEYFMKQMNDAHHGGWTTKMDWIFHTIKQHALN
UniProt Q9P286, sequence (whole entry, looked up): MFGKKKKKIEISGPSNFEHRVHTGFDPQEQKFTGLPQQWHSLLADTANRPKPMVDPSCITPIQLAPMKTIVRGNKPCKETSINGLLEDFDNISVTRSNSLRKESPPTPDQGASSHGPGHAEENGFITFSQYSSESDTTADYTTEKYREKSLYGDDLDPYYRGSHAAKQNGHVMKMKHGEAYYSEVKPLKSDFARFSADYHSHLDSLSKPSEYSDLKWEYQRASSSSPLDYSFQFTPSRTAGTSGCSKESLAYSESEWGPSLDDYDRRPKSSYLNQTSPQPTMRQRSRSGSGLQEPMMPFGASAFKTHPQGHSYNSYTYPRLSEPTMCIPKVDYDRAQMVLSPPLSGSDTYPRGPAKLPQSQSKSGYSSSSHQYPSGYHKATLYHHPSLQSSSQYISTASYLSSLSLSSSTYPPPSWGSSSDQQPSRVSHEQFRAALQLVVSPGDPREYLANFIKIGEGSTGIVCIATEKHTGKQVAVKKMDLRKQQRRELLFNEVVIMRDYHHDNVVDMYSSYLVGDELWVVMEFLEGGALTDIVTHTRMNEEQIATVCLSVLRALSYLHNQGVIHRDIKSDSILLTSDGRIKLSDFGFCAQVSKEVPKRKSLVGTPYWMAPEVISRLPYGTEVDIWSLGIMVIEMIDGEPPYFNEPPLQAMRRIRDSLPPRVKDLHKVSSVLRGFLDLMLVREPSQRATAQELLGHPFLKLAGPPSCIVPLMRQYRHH
UniProt Q6P2M8, sequence (whole entry, looked up): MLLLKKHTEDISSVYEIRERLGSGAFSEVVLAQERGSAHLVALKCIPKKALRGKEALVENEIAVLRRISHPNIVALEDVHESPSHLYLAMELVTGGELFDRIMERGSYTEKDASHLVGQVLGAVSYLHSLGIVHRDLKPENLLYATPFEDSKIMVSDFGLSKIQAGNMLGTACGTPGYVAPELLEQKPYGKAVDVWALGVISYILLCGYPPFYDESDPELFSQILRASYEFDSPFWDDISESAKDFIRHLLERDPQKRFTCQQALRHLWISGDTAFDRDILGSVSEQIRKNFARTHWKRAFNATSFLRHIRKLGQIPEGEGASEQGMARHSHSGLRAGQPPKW
UniProt Q13523, sequence (whole entry, looked up): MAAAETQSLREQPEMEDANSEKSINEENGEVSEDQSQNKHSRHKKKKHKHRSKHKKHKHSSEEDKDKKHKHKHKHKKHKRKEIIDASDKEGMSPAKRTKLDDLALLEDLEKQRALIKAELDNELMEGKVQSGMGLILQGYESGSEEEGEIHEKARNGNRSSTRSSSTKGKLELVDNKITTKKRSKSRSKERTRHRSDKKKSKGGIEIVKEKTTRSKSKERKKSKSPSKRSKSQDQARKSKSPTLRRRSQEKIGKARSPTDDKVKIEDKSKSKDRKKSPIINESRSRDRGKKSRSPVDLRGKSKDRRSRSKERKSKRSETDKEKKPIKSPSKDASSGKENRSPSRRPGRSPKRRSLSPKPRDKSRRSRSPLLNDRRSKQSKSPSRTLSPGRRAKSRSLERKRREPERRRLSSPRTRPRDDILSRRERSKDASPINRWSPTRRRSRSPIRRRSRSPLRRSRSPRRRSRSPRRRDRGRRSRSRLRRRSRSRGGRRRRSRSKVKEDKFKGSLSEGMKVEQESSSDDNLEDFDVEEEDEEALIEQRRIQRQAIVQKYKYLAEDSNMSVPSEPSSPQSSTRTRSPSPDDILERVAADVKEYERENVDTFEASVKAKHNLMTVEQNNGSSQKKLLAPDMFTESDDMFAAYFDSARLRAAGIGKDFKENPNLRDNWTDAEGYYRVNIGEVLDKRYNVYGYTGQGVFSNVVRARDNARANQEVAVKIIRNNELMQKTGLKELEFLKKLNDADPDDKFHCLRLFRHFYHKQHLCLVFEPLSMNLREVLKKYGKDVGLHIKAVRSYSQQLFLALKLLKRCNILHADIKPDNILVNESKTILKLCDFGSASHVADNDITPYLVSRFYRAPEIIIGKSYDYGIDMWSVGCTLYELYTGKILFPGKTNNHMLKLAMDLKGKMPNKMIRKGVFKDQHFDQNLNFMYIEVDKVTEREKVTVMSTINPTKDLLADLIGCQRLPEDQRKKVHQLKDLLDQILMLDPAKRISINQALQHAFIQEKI
UniProt P11802, sequence (whole entry, looked up): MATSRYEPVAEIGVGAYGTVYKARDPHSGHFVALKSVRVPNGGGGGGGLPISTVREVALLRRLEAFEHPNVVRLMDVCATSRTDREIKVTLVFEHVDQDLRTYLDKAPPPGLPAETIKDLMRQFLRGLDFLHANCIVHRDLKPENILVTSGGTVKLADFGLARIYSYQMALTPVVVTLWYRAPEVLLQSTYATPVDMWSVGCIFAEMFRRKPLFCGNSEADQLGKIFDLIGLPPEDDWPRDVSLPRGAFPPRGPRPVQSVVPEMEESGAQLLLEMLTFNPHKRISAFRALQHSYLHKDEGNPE
UniProt P21127, sequence (whole entry, looked up): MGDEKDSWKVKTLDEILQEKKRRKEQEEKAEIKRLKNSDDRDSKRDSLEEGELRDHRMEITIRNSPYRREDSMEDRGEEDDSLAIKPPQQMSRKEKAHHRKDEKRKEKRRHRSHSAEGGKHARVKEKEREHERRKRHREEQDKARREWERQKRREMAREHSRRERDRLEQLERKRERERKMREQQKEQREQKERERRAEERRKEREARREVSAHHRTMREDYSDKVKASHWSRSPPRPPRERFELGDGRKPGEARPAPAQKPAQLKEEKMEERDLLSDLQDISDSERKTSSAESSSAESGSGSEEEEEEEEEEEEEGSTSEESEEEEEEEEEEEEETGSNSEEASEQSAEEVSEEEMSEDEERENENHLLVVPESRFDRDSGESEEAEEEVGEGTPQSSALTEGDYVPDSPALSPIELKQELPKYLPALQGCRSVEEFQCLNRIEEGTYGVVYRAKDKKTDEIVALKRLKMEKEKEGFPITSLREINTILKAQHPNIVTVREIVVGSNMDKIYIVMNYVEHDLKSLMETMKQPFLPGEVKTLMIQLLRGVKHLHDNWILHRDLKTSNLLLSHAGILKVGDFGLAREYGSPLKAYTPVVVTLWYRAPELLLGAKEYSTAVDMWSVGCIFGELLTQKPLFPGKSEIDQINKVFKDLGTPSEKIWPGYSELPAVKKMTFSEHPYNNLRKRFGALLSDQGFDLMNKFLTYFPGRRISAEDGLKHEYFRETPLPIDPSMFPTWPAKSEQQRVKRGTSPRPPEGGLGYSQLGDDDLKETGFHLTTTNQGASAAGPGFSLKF

Block 1 — mode: agonist
Target: Beta-1 adrenergic receptor (ADRB1, Homo sapiens, UniProt P08588)
UniProt P08588, sequence (whole entry, looked up): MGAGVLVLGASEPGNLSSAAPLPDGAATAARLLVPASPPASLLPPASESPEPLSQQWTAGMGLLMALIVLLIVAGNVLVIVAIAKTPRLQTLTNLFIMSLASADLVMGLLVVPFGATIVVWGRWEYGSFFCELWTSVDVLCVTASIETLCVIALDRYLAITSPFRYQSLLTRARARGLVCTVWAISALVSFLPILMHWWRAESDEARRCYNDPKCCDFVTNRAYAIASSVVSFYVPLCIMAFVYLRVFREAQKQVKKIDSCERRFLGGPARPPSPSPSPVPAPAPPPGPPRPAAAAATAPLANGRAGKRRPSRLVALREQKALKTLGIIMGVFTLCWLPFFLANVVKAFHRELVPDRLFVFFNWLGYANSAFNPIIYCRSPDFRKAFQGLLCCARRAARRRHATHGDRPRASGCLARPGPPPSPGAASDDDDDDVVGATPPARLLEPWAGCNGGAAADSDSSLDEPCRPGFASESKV
Structure (SMILES) | EC50 [µM]
COc1ccc(OC)c(C(O)Cn2ccn3nc(-c4ccc(C(C)C)cc4)cc3c2=O)c1 (stereo not shown) | ≥ 100
CC(C)N(C)C(=O)c1cc(-c2cnc(C(C)(C)C)nc2)nc2cc(F)ccc12 | ≥ 100
COc1cccc(F)c1-c1ncc2c(n1)OCCN(c1cccc(C(F)(F)F)c1)C2=O | ≥ 100
COc1ccccc1N1CCN(C(=O)c2ccc(C)n2C)CC1 | ≥ 100
CC(=O)Nc1sc2c(c1-c1cccc3ccccc13)CCNC2 | ≥ 100
COc1ccccc1N1CCN([S+](=O)([O-])c2cc(C)c(C)cc2OC)CC1 | ≥ 100
O=C(Nc1nnc(-c2ccco2)o1)c1cc(-c2ccccc2)nc2ccccc12 | ≥ 100

Block 2 — species: human; sample: microsomes or S9; concentration: 2 µM; time: 0.5 h
Structure (SMILES) | remaining compound
Cc1noc(-c2cccn2Cc2ccc(F)cc2Cl)n1 | 60.6%
CC1(C)C(C(=O)O)C1C(=O)Nc1c[nH]c(=O)[nH]c1=O (stereo not shown) | 56.1%
COc1ccc(-c2nnc3c4ccccc4c(Cl)nn23)cc1 | 0.414%
CC(=O)COc1cc(N2C(=O)C(C)=C(C)C2=O)c(F)cc1Cl | 3.2%
COc1ccc(-c2nc(-c3ccc(OC)cc3)c(-c3ccc(OC)cc3)s2)cc1 | 86.1%
CC1CN(C(=O)C(C)(C)C)CC(C)N1C(=O)[C@@H]1C[C@H](C)CC(=O)N1 (stereo partly shown) | > 100%
COc1ccc(-c2cc(=O)c3c(O)c(OC)c(OC)c(OC)c3o2)cc1OC | 38.5%

Block 3 — method: competition with immobilised ligand; concentration: 1 µM
SMILES: Cc1cc(-n2nc(Cc3cc(F)cc(C(F)(F)F)c3)nc2C)ccc1C(N)=O
target | observed | remaining binding
BMPR1A (Homo sapiens, UniProt P36894) | binding | 85%
PNCK (Homo sapiens, UniProt Q6P2M8) | cell-free assay | 100%
MAPK4 (Homo sapiens, UniProt P31152) | cell-free assay | 100%
PKMYT1 (Homo sapiens, UniProt Q99640) | cell-free assay | 88%
PTK2 (Homo sapiens, UniProt Q05397) | cell-free assay | 100%
FLT3 (Homo sapiens, UniProt P36888, N841I) | cell-free assay | 99%
PIK3CA (Homo sapiens, UniProt P42336, E545A) | cell-free assay | 100%
CDK11B (Homo sapiens, UniProt P21127) | cell-free assay | 100%
PIK3CA (Homo sapiens, UniProt P42336, H1047L) | cell-free assay | 87%
CSNK1G1 (Homo sapiens, UniProt Q9HCP0) | cell-free assay | 100%
RIPK2 (Homo sapiens, UniProt O43353) | cell-free assay | 100%
PAK5 (Homo sapiens, UniProt Q9P286) | cell-free assay | 100%
MERTK (Homo sapiens, UniProt Q12866) | cell-free assay | 100%
CDK4 (Homo sapiens, UniProt P11802) | cell-free assay | 100%
PRPF4B (Homo sapiens, UniProt Q13523) | cell-free assay | 54%

Block 4 — method: phase 2a clinical trial
Structure (SMILES): CC(C)n1cnc(-c2ccc(F)cc2)c1-c1ncc(C(=O)Nc2ccc(N3CCN(C)CC3)cc2)[nH]1
Species: patients with idiopathic pulmonary fibrosis
refers to | dose | setting | patients with treatment-emergent adverse events [%]
idiopathic pulmonary fibrosis | 60 mg once daily | Grade 5 | 0
aspartate aminotransferase increased | dose not given | Grade 5, all drug arms total | 0
left bundle branch block | 30 mg once daily | Grade 4 | 0
hepatic function abnormal | dose not given | Grade 4, all drug arms total | 0
gastro-oesophageal reflux disease | 60 mg once daily | Grade 5 | 0

Excerpt of the above (block 2):
Structure (SMILES) | remaining compound
CC1(C)C(C(=O)O)C1C(=O)Nc1c[nH]c(=O)[nH]c1=O (stereo not shown) | 56.1%
COc1ccc(-c2nnc3c4ccccc4c(Cl)nn23)cc1 | 0.414%
CC(=O)COc1cc(N2C(=O)C(C)=C(C)C2=O)c(F)cc1Cl | 3.2%
COc1ccc(-c2nc(-c3ccc(OC)cc3)c(-c3ccc(OC)cc3)s2)cc1 | 86.1%
CC1CN(C(=O)C(C)(C)C)CC(C)N1C(=O)[C@@H]1C[C@H](C)CC(=O)N1 (stereo partly shown) | > 100%
